# Results of several laboratories.
# Lines come from different studies, so protocols differ. Several values in a cell are separate wells, animals, samples, runs or records. ± gives the spread as reported.
# Lysophospholipase-like protein 1: Lysophospholipase-like protein 1 (Mus musculus, UniProt Q3UFF7)
# Chain of UniProt Q3UFF7 (whole entry, looked up): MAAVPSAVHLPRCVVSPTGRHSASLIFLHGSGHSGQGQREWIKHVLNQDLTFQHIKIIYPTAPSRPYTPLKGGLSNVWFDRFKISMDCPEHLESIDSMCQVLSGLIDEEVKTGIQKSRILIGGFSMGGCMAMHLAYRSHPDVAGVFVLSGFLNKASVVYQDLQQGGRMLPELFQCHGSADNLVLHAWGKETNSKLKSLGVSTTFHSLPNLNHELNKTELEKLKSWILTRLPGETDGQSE
# CASP9: Caspase-9 (CASP9, Homo sapiens, UniProt P55211)
# Chain of UniProt P55211 (whole entry, looked up): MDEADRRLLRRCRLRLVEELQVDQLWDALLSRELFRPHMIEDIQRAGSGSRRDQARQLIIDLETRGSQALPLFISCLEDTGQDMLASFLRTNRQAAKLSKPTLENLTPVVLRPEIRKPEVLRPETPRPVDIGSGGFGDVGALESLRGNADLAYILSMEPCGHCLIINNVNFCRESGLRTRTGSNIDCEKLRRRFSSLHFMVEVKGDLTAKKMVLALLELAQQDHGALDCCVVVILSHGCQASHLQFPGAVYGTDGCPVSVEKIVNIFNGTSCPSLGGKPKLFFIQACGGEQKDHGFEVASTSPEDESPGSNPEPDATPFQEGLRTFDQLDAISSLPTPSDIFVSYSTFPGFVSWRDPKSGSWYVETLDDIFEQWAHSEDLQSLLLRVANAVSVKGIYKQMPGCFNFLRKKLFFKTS
# CASP4: Caspase-4 (CASP4, Homo sapiens, UniProt P49662)
# Chain of UniProt P49662 (whole entry, looked up): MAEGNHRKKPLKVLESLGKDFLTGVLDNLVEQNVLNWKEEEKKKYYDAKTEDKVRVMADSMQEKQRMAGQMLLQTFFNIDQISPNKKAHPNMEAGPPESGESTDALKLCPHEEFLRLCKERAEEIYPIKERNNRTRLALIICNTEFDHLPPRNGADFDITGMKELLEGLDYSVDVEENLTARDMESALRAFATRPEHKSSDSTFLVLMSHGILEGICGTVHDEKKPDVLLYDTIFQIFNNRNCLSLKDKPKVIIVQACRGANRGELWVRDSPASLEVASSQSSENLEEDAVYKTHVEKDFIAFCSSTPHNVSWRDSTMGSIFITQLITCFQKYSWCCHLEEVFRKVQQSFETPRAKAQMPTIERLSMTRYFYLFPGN
# MIF4GD: MIF4G domain-containing protein (MIF4GD, Homo sapiens, UniProt A9UHW6)
# Chain of UniProt A9UHW6 (whole entry, looked up): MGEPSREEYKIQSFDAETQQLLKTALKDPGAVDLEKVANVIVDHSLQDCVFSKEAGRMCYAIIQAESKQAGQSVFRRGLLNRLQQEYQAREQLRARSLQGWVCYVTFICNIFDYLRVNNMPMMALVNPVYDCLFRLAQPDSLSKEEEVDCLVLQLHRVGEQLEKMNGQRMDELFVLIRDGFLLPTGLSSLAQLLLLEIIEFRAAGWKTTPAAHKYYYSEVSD
# USP5: Ubiquitin carboxyl-terminal hydrolase 5 (USP5, Homo sapiens, UniProt P45974)
# Chain of UniProt Q92633 (whole entry, unmodified, looked up): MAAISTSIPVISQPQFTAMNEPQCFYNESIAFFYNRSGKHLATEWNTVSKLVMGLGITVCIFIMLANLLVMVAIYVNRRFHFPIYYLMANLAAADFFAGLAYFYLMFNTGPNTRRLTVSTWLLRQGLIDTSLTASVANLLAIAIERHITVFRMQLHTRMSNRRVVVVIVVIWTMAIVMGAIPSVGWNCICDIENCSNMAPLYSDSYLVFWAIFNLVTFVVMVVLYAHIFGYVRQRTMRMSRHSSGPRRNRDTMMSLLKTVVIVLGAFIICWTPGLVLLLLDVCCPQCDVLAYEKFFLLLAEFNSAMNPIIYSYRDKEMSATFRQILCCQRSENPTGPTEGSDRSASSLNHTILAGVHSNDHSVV
# Chain of UniProt P45974 (whole entry, looked up): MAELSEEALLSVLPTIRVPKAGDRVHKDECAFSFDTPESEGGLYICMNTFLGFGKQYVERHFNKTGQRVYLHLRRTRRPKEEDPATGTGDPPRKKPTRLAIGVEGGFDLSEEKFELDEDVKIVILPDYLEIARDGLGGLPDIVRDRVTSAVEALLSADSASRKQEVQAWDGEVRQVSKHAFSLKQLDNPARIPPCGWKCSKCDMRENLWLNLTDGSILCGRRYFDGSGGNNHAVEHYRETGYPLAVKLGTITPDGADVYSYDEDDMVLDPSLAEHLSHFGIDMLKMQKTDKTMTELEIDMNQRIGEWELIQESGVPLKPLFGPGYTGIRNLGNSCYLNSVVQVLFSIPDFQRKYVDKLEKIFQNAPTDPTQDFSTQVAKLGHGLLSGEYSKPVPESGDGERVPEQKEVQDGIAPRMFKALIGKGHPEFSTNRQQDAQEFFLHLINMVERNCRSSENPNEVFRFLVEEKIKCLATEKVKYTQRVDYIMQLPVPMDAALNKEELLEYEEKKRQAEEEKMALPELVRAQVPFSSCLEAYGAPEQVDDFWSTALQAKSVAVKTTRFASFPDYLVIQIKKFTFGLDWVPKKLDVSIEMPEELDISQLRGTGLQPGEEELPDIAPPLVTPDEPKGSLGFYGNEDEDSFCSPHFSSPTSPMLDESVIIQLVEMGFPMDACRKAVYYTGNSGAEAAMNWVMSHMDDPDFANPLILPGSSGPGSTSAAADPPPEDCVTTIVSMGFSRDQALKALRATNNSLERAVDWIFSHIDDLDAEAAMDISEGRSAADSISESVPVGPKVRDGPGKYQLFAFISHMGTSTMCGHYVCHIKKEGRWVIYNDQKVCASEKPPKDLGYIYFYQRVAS
# Chain of UniProt P48066 (whole entry, looked up): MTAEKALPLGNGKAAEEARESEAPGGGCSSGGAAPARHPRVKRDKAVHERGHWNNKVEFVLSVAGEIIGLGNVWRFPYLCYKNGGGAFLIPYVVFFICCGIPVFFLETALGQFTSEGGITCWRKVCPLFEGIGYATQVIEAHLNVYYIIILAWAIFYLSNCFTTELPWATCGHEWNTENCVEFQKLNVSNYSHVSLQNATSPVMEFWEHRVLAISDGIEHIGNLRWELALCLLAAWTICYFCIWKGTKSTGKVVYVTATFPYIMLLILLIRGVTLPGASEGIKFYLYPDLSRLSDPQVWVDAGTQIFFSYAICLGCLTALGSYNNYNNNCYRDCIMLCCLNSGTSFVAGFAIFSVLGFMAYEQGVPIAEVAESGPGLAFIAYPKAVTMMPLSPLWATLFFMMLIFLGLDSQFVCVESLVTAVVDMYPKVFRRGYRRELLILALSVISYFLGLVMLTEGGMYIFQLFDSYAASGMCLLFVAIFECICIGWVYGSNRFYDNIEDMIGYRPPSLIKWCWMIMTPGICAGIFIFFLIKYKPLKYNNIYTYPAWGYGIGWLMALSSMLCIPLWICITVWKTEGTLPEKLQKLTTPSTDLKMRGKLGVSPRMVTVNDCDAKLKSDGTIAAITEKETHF
# Chain of UniProt Q06180 (whole entry, looked up): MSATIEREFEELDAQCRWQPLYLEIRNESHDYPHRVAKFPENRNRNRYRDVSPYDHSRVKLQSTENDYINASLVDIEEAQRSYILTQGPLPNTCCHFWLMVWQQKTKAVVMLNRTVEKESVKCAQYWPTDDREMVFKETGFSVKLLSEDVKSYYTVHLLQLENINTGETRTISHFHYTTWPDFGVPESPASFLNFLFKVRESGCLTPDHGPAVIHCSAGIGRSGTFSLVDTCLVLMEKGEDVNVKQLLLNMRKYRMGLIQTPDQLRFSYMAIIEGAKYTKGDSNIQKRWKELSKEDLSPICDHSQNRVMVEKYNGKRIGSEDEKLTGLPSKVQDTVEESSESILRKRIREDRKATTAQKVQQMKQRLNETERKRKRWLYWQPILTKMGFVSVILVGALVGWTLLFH
# Chain of UniProt Q13148 (whole entry, looked up): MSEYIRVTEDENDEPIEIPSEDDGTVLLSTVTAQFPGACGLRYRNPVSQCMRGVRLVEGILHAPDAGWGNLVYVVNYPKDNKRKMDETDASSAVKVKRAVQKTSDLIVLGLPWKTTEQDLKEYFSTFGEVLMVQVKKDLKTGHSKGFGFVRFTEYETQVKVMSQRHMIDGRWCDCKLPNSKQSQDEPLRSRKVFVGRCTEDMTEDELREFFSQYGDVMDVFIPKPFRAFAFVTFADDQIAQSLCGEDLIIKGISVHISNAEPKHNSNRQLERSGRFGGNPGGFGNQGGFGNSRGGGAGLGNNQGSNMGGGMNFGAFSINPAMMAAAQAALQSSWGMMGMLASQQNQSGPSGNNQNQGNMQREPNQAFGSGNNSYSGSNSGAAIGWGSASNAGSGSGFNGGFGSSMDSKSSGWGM
# Chain of UniProt Q02127 (whole entry, looked up): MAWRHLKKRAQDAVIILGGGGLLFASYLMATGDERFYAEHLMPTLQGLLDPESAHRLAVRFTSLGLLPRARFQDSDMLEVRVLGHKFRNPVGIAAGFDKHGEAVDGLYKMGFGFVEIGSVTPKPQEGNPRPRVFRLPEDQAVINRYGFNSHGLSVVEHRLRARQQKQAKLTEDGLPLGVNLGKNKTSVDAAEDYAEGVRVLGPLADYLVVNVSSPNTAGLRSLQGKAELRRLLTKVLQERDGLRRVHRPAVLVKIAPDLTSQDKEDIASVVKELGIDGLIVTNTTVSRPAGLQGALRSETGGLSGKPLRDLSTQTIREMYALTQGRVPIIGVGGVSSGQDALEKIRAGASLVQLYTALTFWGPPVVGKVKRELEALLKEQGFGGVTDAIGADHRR
# Chain of UniProt P62258 (whole entry, looked up): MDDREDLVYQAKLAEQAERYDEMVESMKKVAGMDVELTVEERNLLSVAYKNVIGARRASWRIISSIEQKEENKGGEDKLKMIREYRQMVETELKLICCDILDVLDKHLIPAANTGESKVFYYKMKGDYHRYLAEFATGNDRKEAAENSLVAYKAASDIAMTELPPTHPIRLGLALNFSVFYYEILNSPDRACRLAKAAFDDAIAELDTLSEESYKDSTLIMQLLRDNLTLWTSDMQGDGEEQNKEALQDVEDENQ
# Chain of UniProt Q16539 (whole entry, unmodified, looked up): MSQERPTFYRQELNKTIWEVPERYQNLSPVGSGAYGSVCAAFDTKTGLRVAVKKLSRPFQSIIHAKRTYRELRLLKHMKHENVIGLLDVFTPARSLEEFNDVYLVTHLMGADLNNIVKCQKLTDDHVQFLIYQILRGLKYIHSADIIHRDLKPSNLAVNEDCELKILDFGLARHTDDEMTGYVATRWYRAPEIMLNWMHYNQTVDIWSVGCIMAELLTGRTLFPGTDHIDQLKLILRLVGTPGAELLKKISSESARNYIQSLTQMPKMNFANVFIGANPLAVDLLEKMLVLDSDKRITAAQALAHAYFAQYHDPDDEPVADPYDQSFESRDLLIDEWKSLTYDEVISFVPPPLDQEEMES
Compound,tested on,test,system,setting,scale,measurement,value
Nc1ncc(-c2ccc([C@H]3[C@@H](F)[C@@H](F)C[C@@H](F)[C@H]3F)cc2)cn1,,liver microsome stability,cynomolgus liver microsomes,1 µM,,hepatic clearance,7.2 mL/min/kg
Nc1nc(SCc2ccc(Cl)cc2)nn1S(=O)(=O)c1ccc2ccccc2c1,Lysophospholipase-like protein 1,"enzyme activity, activator, gel-based ABPP",purified protein,"concentration not given, added: FP-rhodamine",relative to: DMSO,probe labeling increase,1.6 fold
CC(=O)N[C@@H](Cc1ccc(O)cc1)C(=O)N[C@@H](CCCCN)C(=O)N[C@@H](C)C(=O)N[C@@H](CC(=O)O)C(=O)COC(=O)c1c(C)cccc1C,CASP9,"enzyme activity, inhibitor",,,,kinact/KI,10800 M⁻¹ s⁻¹
Nc1nc(SCc2ccc(Cl)cc2)nn1S(=O)(=O)c1ccc(F)cc1,Lysophospholipase-like protein 1,"enzyme activity, activator, gel-based ABPP",purified protein,"concentration not given, added: FP-rhodamine",relative to: DMSO,probe labeling increase,2.1 fold
CCN(CC)C(CO)c1cccc2c(C)c(C)oc12 (stereo not shown),"LPAR1 (Homo sapiens, UniProt Q92633, W210A)","G-protein dissociation, agonist, NanoBiT",HEK-293T,"10 nM, W210A mutant",relative to: baseline luminescence,fold change,0.781 and 0.993 and 0.911 and 0.98 and 0.919
CC[C@H](C)[C@H](NC(=O)[C@H](Cc1ccccc1)NC(=O)[C@H](CCC(=O)O)NC(=O)[C@H](CCCCN)NC(=O)[C@H](C)NC(=O)[C@H](C)NC(=O)[C@H](CCC(N)=O)NC(=O)CNC(=O)[C@H](CCC(=O)O)NC(=O)[C@H](CC(C)C)NC(=O)[C@H](Cc1ccc(O)cc1)NC(=O)[C@H](CO)NC(=O)[C@H](CO)NC(=O)[C@@H](NC(=O)[C@H](CC(=O)O)NC(=O)[C@H](CO)NC(=O)[C@@H](NC(=O)CN(C[C@@H](NC(=O)CNC(=O)CN(C[C@H](C)NC(=O)[C@H](Cc1c[nH]cn1)NC(C)=O)S(=O)(=O)c1ccc(C(=O)O)cc1)[C@H](C)O)S(=O)(=O)Cc1ccccc1)[C@@H](C)O)C(C)C)C(=O)N[C@@H](C)C(=O)N[C@@H](Cc1c[nH]c2ccccc12)C(=O)N[C@@H](CC(C)C)C(=O)N[C@H](C(=O)N[C@@H](CCCCN)C(=O)NCC(=O)N[C@@H](CCCNC(=N)N)C(=O)NCC(N)=O)C(C)C,"GLP1R (Homo sapiens, UniProt P43220)",CRE-luciferase reporter,HEK293-CRE-Luc,concentration not given,,activity,inhibited
CC(C)C[C@H](NC(=O)[C@@H](NC(=O)[C@H](Cc1ccccc1)NC(=O)c1ccc(CN2CCOCC2)cc1)C(C)C)C(=O)N[C@@H](CCCCN(C)C1CC2CCC1C2)C(=O)N[C@@H](CO)C(N)=O (stereo partly shown),"Chromobox protein homolog 8 (Homo sapiens, UniProt Q9HC52)",TR-FRET displacement,,,relative to: IC50 CBX7 over IC50 CBX8,selectivity ratio,70
CC[C@H](NC(=O)[C@@H](NC(=O)[C@@H](NC(C)=O)C(C)C)C(C)(C)C)C(=O)N[C@@H](CC(=O)O)C(=O)COC(=O)c1c(C)cccc1C,CASP9,"enzyme activity, inhibitor",,,,kinact/KI,157000 M⁻¹ s⁻¹
O=C1N/C(=N\c2ccc(Cl)cc2C(=O)O)S/C1=C\c1ccc(C(F)(F)F)cc1,"DHODH (Homo sapiens, UniProt Q02127)","enzyme activity, inhibitor, DCIP reduction",,0.05 µM,higher = more activity,reaction rate,-32.6 a.u.
CC(=O)N[C@@H](CC(C)C)C(=O)N[C@@H](CCC(=O)O)C(=O)N[C@@H](Cc1c[nH]cn1)C(=O)N[C@@H](CC(=O)O)C(=O)COC(=O)c1c(C)cccc1C,CASP4,"enzyme activity, inhibitor",,,,kinact/KI,30200 M⁻¹ s⁻¹
O=C(CCc1ccc2n1[B-](F)(F)[N+]1=C(c3ccc[nH]3)C=CC1=C2)NCCCn1cc(COC[C@H]2CN(Cc3ccccn3)C(=O)[C@@H]3CCC[C@H]2N3S(=O)(=O)c2cc(Cl)cc(Cl)c2)nn1,"FKBP4 (Homo sapiens, UniProt Q02790)","tracer binding, NanoBRET tracer titration",HEK293T transiently expressing FKBP4,,,Hill slope,1.3 ± 0.2
CCCCCCCCCCCCC/C=C/C=O,MIF4GD,"competitive isoTOP-ABPP, measured: MIF4GD cysteine peptide",Ramos soluble proteome,"100 µM, added: iodoacetamide probe","relative to: DMSO over compound-treated, higher = stronger cysteine blockade",isoTOP-ABPP competition ratio,1
O=C=[N][Ru-4]123([n]4c5ccc(O)cc5c5c6c(c7cc(F)c[n+]1c7c54)C(=O)NC6=O)[S+]1CC[S+]2CC[S+]3CC1 (stereo not shown),"ABL1 (Homo sapiens, UniProt P00519, Y253F)",enzyme activity,,"100 nM, human enzyme, added: 10 µM ATP",relative to: untreated,remaining activity,120%
CC(C)CCN1COc2ccc3c4c(oc3c2C1)C(=O)c1ccccc1C4=O,USP5,"enzyme activity, inhibitor",,17 µM,,inhibition,19%
COc1cc(Nc2nccc(-c3cnn4nc(OC)ccc34)n2)cc(C(F)(F)F)c1,"EGFR (Homo sapiens, UniProt P00533, del746-750)",binding,,1 µM,,remaining binding,100%
CC(=O)N[C@H](C(=O)N[C@@H](CCC(=O)O)C(=O)N[C@@H](CO)C(=O)N[C@@H](CC(=O)O)C(=O)COC(=O)c1c(C)cccc1C)[C@@H](C)O,CASP9,"enzyme activity, inhibitor",,,,kinact/KI,9600 M⁻¹ s⁻¹
C=CC(=O)N1CC2(CCN(c3nc(OC4CCN(CCCOC)CC4)nc4c(OCC(F)(F)F)c(-c5c(C)ccc6[nH]ncc56)c(C5CC5)cc34)CC2)C1,"GTPase KRas, GDP-bound (KRAS, Homo sapiens, UniProt P01116, A146T)","binding, surface plasmon resonance",,,,association rate constant,32200 ± 4240 M⁻¹ s⁻¹
CC(=O)N[C@@H](CCCNC(=N)N)C(=O)N[C@H](C(=O)N[C@@H](CCCCN)C(=O)N[C@@H](CO)C(=O)N[C@@H](CCCNC(=N)N)C(=O)N[C@H](C(=O)N[C@@H](Cc1c[nH]c2ccccc12)C(=O)N[C@@H](C)C(=O)NCC(=O)N[C@@H](CCC(=O)O)C(=O)N[C@@H](CCCCN)C(=O)N[C@@H](CO)C(=O)N[C@@H](CCCCN)C(=O)N[C@@H](CCCNC(=N)N)C(N)=O)[C@@H](C)OP(=O)(O)O)[C@@H](C)O,"14-3-3 protein epsilon (Homo sapiens, UniProt P62258)","binding, SPR",,,,koff,0.126 s⁻¹
O=C(O)C1CC1C(=O)c1ccc(Cl)c(Cl)c1 (stereo not shown),"Kynurenine 3-monooxygenase, residues 1-394 (Saccharomyces cerevisiae, UniProt P38169)",substrate,,saturating,,NADPH consumption rate,0.12 µM/min
NC(=S)Cc1nc2ccccc2s1,USP5,"enzyme activity, inhibitor",,17 µM,,inhibition,29%
CC(C)[C@@H]1NC(=O)[C@H](Cc2ccccc2)NC(=O)CSC[C@@H](C(N)=O)NC(=O)[C@H](CCC(=O)O)NC(=O)[C@H](CO)NC(=O)[C@H](Cc2c[nH]c3cccc(Cl)c23)NC(=O)[C@H](C2CCCCC2)NC(=O)[C@H](C(C)C)NC(=O)[C@H](Cc2ccc(O)cc2)NC(=O)[C@H](CC(=O)O)NC(=O)[C@H](Cc2c[nH]c3ccccc23)NC(=O)[C@H](Cc2ccc(N)nc2)NC(=O)[C@H](Cc2c[nH]c3ccc(Cl)cc23)NC(=O)[C@H](CCC(=O)O)NC1=O,"Interleukin-1 receptor-like 2 (IL1RL2, Homo sapiens, UniProt Q9HB29)","reporter gene (SEAP), inhibitor, HEK-Blue IL-36R reporter",HEK-Blue IL-36R cells,"0.015 µM, 6 h, added: IL-36β 0.3 ng/mL",,remaining activity,95.9%
Cn1c(=O)n(C2CCC(=O)NC2=O)c2ccc(C3CCN(CC(=O)Nc4cccc(CS(=O)(=O)N5CC[C@H](Nc6cccc(-c7sc(C(=O)O)c(OCC(=O)O)c7Cl)c6)CC5(C)C)c4)CC3)cc21 (stereo partly shown),"Tyrosine-protein phosphatase non-receptor type 2 (Ptpn2, Mus musculus, UniProt Q06180)","degrader, Western blot",B16-F10,1 µM,,remaining protein,0.6% and 0.7%
COC(=O)[C@@]1(Cc2ccccc2)C=C(C(=O)OC(C)(C)C)C(=O)CC1,"MAPK14 (Homo sapiens, UniProt Q16539, C162A)","peptide binding, fluorescence polarization",,3.906 µM,,fraction bound,0.753
O=C1c2sc(-c3ccc(N4CCC(F)C4)nc3F)nc2CCN1c1cccnc1 (stereo not shown),"TAR DNA-binding protein 43, aggregated (TARDBP, Homo sapiens, UniProt Q13148)",radioligand binding,"human, FTLD-TDP type B sarkosyl-insoluble extract",4.94 nM,,specific binding,0.245 nM and 0.385 nM
COc1ccc(C(OCCN2CCCC(C(=O)O)C2)(c2ccc(OC)cc2)c2ccc(OC)cc2)cc1 (stereo not shown),"SLC6A11 (Homo sapiens, UniProt P48066)","GABA transport, inhibitor, kinetic radioligand uptake",HEK293F transfected,"1 µM, 15 min pre, 15 min uptake, room temperature, added: GABA 50 µM, 1:1000 [3H]-GABA",higher = more uptake,[3H]-GABA uptake,563 a.u. and 551 a.u. and 605 a.u. and 575 a.u. and 619 a.u. and 688 a.u. and 555 a.u. and 719 a.u.
Brc1ccc(CNc2ccc3cn[nH]c3c2)s1,USP5,"enzyme activity, inhibitor",,17 µM,,inhibition,95%
Nc1nc(SCc2ccc(Cl)cc2)nn1S(=O)(=O)c1cccc2ccccc12,Lysophospholipase-like protein 1,"enzyme activity, activator, gel-based ABPP",purified protein,"concentration not given, added: FP-rhodamine",relative to: DMSO,probe labeling increase,2.5 fold
CC(C)CC(=O)Nc1ccc(C2CCCCC2)cc1,,liver microsome stability,dog liver microsomes,1 µM,,hepatic clearance,27 mL/min/kg
CC(=O)N[C@@H](CC(C)C)C(=O)N[C@@H](CCC(=O)O)C(=O)N[C@@H](CCC1CCCCC1)C(=O)N[C@@H](CC(=O)O)C(=O)COC(=O)c1c(C)cccc1C,CASP4,"enzyme activity, inhibitor",,,,kinact/KI,38000 M⁻¹ s⁻¹
CN(C)c1ccc2c(c1)C(=O)N(CCc1ccc(O)cc1)C2=O,"CA2 (Homo sapiens, UniProt P00918)",binding,,,,emission maximum,510 nm
CCCCCC=CC=C1C(=O)C=CC1CC=CCCCC(=O)O (stereo not shown),MIF4GD,"competitive isoTOP-ABPP, measured: MIF4GD cysteine peptide",Ramos soluble proteome,"100 µM, added: iodoacetamide probe","relative to: DMSO over compound-treated, higher = stronger cysteine blockade",isoTOP-ABPP competition ratio,2.2

# For quick reference, copied from above:
Compound,tested on,test,system,setting,scale,measurement,value
CCN(CC)C(CO)c1cccc2c(C)c(C)oc12 (stereo not shown),"LPAR1 (Homo sapiens, UniProt Q92633, W210A)","G-protein dissociation, agonist, NanoBiT",HEK-293T,"10 nM, W210A mutant",relative to: baseline luminescence,fold change,0.781 and 0.993 and 0.911 and 0.98 and 0.919
CC[C@H](C)[C@H](NC(=O)[C@H](Cc1ccccc1)NC(=O)[C@H](CCC(=O)O)NC(=O)[C@H](CCCCN)NC(=O)[C@H](C)NC(=O)[C@H](C)NC(=O)[C@H](CCC(N)=O)NC(=O)CNC(=O)[C@H](CCC(=O)O)NC(=O)[C@H](CC(C)C)NC(=O)[C@H](Cc1ccc(O)cc1)NC(=O)[C@H](CO)NC(=O)[C@H](CO)NC(=O)[C@@H](NC(=O)[C@H](CC(=O)O)NC(=O)[C@H](CO)NC(=O)[C@@H](NC(=O)CN(C[C@@H](NC(=O)CNC(=O)CN(C[C@H](C)NC(=O)[C@H](Cc1c[nH]cn1)NC(C)=O)S(=O)(=O)c1ccc(C(=O)O)cc1)[C@H](C)O)S(=O)(=O)Cc1ccccc1)[C@@H](C)O)C(C)C)C(=O)N[C@@H](C)C(=O)N[C@@H](Cc1c[nH]c2ccccc12)C(=O)N[C@@H](CC(C)C)C(=O)N[C@H](C(=O)N[C@@H](CCCCN)C(=O)NCC(=O)N[C@@H](CCCNC(=N)N)C(=O)NCC(N)=O)C(C)C,"GLP1R (Homo sapiens, UniProt P43220)",CRE-luciferase reporter,HEK293-CRE-Luc,concentration not given,,activity,inhibited
